Experimental data pooled from the literature.
Every numbered part comes from another study and shows a few of its results, in no order. Several values in a cell are separate wells, animals, samples, runs or records.

Set 1
Organism: Sarcocystis neurona
Observed: parasite growth
Concentration: 10 µM
Setting: first screen
Relative to: untreated
Structure (SMILES) | log2 fold change
C[C@]12CC[C@H]3[C@@H](CCC4=CC(=O)CC[C@@H]43)[C@@H]1CC[C@@H]2O | -0.17
CNC(=O)Oc1ccc2c(c1)[C@]1(C)CCN(C)[C@@H]1N2C.CNC(=O)Oc1ccc2c(c1)[C@]1(C)CCN(C)[C@@H]1N2C.O=S(=O)(O)O | -0.31
CCCCC/C=C\C/C=C\C/C=C\C/C=C\CCCC(=O)Nc1ccc(O)cc1 | -0.18
CN1CC[C@@]23CCCC[C@@H]2[C@@H]1Cc1ccc(O)cc13.O=C(O)C(O)C(O)C(=O)O | 0.14
COc1ccc2[nH]cc(CCN)c2c1 | 0.26
CN(C)C(=O)Oc1ccc[n+](C)c1.[Br-] | -0.0662
CC(C)CC(N(C)C)C1(c2ccc(Cl)cc2)CCC1.Cl (centres unmarked) | -0.0216
Cl.O=C1[C@H]2CCCC[C@H]2C(=O)N1CCCCN1CCN(c2nsc3ccccc23)CC1 | -1.19
Br.COc1ccc2c(c1)[C@]13CCCC[C@@H]1[C@H](C2)N(C)CC3 | 0.15
CCC(COC(=O)c1cc(OC)c(OC)c(OC)c1)(c1ccccc1)N(C)C.O=C(O)/C=C\C(=O)O (centres unmarked) | 0.27
Cl.Oc1cc2c(cc1O)[C@H]1c3ccccc3CN[C@@H]1CC2 | 0.14

Set 2
Structure (SMILES): CC(C)S(=O)(=O)c1cc2c(Nc3ccc4sc(C5CCCC5)nc4c3)ccnc2cc1OCCO
Method: CCK-8
cell line | setting | survival
L929 RIPK3-/- reexpressing RIPK3 K51A/R69H | 6.25 µM | 95.6% and 92.5% and 96% and 88.2%
L929 RIPK3-/- reexpressing RIPK3 K51A/R69H | 12.5 µM, added: zVAD | 89.2% and 85.4% and 85% and 85.2% and 84.7%
L929 RIPK3-/- reexpressing RIPK3 K51A/R69H | 1.563 µM, added: zVAD | 99.6% and 90.6% and 102% and 97.9%
L929 RIPK3-/- reexpressing RIPK3 K51A | 25 µM, added: zVAD | 50.6% and 37.8% and 39.2% and 37.2% and 40.3%
L929 RIPK3-/- reexpressing RIPK3 K51A/R69H | 3.125 µM, added: zVAD | 101% and 86.6% and 96% and 98.7%

Set 3
Cell line: mouse MPNST tumor cells
Method: high-content immunofluorescence imaging
Refers to: nuclear SOX9
Concentration: 10 µM
Time: 12 h
Setting: mean of 2 replicates
Relative to: DMSO control
Reading: higher = more nuclear SOX9
SMILES | nuclear SOX9 intensity
CCCC(C)(COC(N)=O)COC(=O)NC(C)C (centres unmarked) | 89.5 % of DMSO
c1ccc(C2CC2)c(OCC2=NCCN2)c1 | 103 % of DMSO
CC(=O)OCC(=O)[C@H]1CC[C@H]2[C@@H]3CC[C@H]4C[C@H](O)CC[C@]4(C)[C@H]3C(=O)C[C@]12C | 103 % of DMSO
O=C(CCCN1CCC2(CC1)C(=O)NCN2c1ccccc1)c1ccc(F)cc1 | 146 % of DMSO and 149 % of DMSO
CN1CCC2(C)c3cc(O)ccc3N(C)C12 (single isomer, unassigned; (-)) | 105 % of DMSO
CC(Cc1ccc(O)cc1)NCC(O)c1cc(O)cc(O)c1 (centres unmarked) | 112 % of DMSO

Single results of other studies
SMILES | test system | setting | quantity | result
COc1ccc(-c2c(Nc3ccccn3)[nH]c3c(C4=CCCCC4)c(-c4ccccc4)nn3c2=O)cc1 | patients with advanced malignancies | oral, dose not given, treatment-emergent adverse events | abdominal pain incidence | 12.5%
